Experimental data from different studies.
Each line is one published result; not all experiments were run side by side.
Chain of UniProt Q8TD19 (whole entry, looked up): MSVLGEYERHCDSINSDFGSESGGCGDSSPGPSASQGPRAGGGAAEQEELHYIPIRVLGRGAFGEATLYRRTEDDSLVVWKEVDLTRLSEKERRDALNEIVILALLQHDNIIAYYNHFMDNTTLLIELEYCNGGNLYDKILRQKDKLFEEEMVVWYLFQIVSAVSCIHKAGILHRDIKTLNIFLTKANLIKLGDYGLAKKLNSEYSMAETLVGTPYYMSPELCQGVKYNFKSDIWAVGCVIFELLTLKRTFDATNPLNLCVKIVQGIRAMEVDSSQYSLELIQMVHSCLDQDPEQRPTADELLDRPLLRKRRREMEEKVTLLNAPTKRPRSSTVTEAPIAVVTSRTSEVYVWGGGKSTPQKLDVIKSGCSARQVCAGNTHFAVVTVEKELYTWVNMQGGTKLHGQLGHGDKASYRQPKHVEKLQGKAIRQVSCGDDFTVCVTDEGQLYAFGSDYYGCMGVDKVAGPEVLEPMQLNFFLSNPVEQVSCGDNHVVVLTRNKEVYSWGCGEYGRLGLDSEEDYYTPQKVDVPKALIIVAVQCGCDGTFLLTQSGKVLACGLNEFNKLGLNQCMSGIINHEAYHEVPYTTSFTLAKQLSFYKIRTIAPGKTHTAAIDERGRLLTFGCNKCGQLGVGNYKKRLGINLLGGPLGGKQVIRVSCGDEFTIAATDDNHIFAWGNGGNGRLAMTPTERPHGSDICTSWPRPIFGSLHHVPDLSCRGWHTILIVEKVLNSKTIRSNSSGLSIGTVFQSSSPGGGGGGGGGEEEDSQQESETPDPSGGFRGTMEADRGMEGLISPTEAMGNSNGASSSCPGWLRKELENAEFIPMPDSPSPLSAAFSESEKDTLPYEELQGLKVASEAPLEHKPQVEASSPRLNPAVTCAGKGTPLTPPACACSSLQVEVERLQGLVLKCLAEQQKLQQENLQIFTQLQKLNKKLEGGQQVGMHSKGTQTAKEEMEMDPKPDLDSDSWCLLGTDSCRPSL
Chain of UniProt Q13233 (whole entry, looked up): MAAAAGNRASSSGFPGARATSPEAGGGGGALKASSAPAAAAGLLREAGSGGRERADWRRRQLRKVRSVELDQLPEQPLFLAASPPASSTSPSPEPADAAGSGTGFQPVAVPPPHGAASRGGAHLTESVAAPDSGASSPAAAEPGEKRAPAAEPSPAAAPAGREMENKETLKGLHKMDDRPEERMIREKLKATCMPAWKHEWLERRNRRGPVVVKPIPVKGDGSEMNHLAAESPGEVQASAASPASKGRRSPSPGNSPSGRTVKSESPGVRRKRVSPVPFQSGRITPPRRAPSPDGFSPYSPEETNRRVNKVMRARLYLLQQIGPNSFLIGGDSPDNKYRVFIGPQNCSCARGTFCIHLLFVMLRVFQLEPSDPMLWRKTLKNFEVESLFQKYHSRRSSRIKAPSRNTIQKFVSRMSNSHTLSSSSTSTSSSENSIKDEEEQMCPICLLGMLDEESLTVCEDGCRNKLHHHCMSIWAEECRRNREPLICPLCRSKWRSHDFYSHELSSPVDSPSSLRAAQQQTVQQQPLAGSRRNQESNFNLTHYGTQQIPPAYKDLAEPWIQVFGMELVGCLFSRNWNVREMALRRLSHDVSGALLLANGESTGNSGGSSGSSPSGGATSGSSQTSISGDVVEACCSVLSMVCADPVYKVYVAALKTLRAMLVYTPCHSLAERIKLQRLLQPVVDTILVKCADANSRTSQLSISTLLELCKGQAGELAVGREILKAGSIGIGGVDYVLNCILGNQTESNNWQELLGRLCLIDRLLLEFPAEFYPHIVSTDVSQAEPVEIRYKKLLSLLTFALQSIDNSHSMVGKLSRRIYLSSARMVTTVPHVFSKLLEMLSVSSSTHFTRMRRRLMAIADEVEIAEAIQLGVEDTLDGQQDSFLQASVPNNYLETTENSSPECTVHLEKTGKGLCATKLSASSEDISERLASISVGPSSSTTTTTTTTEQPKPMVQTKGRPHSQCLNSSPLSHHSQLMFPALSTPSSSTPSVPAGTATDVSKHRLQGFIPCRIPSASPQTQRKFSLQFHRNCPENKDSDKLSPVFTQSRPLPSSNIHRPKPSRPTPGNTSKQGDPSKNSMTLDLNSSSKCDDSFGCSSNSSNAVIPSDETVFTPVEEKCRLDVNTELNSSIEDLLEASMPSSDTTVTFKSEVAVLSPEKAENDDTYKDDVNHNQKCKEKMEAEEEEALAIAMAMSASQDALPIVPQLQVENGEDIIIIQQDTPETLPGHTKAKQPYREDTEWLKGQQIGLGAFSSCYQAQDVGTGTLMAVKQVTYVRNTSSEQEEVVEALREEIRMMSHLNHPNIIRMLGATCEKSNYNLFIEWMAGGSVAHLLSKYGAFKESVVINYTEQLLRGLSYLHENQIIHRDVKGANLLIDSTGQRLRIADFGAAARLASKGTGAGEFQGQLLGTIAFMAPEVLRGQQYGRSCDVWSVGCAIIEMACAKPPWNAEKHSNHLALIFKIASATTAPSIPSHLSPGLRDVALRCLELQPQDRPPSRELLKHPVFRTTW
Chain of UniProt P26358 (whole entry, looked up): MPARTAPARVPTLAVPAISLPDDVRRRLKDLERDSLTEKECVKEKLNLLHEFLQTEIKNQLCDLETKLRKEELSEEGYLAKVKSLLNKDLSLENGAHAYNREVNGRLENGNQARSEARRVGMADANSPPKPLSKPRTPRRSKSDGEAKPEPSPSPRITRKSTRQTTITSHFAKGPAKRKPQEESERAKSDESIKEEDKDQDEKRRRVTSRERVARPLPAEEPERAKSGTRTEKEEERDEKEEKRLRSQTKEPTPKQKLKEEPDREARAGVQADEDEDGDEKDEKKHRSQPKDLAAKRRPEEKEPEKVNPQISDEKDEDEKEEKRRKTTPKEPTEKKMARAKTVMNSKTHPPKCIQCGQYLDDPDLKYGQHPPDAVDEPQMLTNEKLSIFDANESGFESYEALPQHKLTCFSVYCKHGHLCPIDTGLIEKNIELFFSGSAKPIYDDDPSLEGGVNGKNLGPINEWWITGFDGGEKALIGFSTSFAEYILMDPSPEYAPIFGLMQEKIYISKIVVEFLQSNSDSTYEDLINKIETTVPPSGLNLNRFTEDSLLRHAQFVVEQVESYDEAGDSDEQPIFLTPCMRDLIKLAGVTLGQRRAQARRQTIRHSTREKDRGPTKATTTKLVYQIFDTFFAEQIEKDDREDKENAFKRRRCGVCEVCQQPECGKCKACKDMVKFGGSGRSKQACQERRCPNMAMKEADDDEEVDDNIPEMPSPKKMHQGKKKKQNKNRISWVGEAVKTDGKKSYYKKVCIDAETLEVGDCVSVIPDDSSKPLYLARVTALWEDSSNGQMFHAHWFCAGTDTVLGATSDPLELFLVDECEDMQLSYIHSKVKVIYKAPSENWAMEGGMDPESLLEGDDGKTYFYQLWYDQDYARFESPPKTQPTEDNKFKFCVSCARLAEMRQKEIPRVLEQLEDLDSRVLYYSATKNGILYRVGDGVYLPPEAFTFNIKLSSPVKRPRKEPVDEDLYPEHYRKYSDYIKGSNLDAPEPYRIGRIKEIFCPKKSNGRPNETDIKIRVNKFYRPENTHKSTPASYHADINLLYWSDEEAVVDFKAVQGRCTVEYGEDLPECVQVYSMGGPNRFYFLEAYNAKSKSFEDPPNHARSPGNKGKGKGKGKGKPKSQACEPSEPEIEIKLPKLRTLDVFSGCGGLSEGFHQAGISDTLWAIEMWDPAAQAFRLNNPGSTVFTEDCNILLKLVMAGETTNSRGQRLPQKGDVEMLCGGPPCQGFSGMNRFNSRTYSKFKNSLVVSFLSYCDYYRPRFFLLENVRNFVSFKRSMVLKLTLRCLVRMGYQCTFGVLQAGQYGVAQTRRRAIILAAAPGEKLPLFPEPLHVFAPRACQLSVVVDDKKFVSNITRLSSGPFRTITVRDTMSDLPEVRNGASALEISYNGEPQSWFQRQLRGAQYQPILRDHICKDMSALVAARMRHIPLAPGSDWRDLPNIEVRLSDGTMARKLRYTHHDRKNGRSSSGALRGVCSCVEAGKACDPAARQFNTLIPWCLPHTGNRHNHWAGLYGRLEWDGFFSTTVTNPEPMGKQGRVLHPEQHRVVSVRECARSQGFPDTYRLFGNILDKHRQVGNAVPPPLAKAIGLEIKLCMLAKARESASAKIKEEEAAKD
Chain of UniProt Q9UMR5 (whole entry, looked up): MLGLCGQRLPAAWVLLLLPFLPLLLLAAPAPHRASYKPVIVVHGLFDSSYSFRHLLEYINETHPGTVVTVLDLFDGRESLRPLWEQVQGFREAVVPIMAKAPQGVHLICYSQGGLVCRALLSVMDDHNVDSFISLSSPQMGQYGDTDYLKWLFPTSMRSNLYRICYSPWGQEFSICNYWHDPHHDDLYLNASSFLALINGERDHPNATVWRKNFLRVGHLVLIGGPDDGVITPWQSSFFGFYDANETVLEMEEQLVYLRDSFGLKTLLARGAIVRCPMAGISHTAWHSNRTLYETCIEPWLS
Chain of UniProt P21917 (whole entry, looked up): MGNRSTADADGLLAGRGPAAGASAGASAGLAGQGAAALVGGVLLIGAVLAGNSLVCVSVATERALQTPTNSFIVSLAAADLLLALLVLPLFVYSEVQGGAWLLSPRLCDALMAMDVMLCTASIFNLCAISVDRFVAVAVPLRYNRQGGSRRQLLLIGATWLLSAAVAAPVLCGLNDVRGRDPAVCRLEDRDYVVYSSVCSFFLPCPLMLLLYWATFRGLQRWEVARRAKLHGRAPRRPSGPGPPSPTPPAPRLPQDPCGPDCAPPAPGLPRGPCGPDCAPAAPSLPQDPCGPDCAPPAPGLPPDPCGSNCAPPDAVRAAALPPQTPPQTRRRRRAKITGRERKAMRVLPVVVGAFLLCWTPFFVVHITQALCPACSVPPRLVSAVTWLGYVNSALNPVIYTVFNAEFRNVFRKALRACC

`O=C(c1ccc(Cl)cc1)N1CCN2C(=O)N(OC(=O)N3CCOc4ccccc43)C(=O)C2C1` (stereo not drawn) — result for “mean protein ratio”: 0.4 (PPT2 (Homo sapiens, UniProt Q9UMR5); MS-based ABPP; SW-620 conditioned medium; 10 µM, 1 h, 37 °C; baseline: compound over DMSO, lower = more inhibition).
For `C[C@H]1CN(c2n[nH]c3nc(N[C@H]4CC[C@H](NS(=O)(=O)CCC(F)(F)F)CC4)ncc23)CCO1`, the relative abundance was 1.21 (Paxillin (PXN, Homo sapiens, UniProt P49023); competitor, Kinobeads competition, measured: PXN; human cell extract; 20 µM; baseline: vehicle).
`CN(C(=O)n1cnc(-c2ccc[n+]([O-])c2)c1)C1CCCCC1` gave an inhibition of -10% (GRM5 (Homo sapiens, UniProt P41594); radioligand binding; 50 µM, together with: [3H]quisqualic acid).
`COc1cc(Nc2ncc(F)c(Nc3ccc4c(n3)NC(=O)C(C)(C)O4)n2)cc(OC)c1OC` has an inhibition of 38% (CDK2 (Homo sapiens, UniProt P24941); KINOMEscan; 10 µM).
The inhibition of `CN1CCN(c2cc(-c3ccncc3)c(-c3ccc4ccccc4c3)nn2)CC1` is reported as -28.7% (HTR1A (Homo sapiens, UniProt P08908); antagonist, FLIPR; 10 µM).
`CN(CCN1CCC(OC(=O)Nc2ccccc2-c2ccccc2)CC1)C(=O)c1ccc(CN2CCC(C(N)=O)CC2)cc1` gave an inhibition of 5% (catechol O-methyltransferase; enzyme activity; 1 µM).
`C[C@@H](O)[C@H](NC(=O)[C@@H]1CSSC[C@H](NC(=O)[C@@H](Cc2ccccc2)NC(=O)CN2CCN(CC(=O)[O-])CCN(CC(=O)[O-])CCN(CC(=O)[O-])CC2)C(=O)N[C@@H](Cc2ccc(O)cc2)C(=O)N[C@H](Cc2c[nH]c3ccccc23)C(=O)N[C@@H](CCCCN)C(=O)N[C@@H]([C@@H](C)O)C(=O)N1)C(=O)O.[177Lu+3]` gave a retention of 37.4% (MEC1; gamma counter; 30 min efflux after 2 h loading).
`Oc1ccc2c3c1O[C@H]1[C@@H](O)CC[C@@]4(O)[C@@H](C2)N(CC2CCC2)CC[C@]314` — result for “log2 fold change”: 0.521 (Adhesion G-protein coupled receptor F3 (ADGRF3, Homo sapiens, UniProt Q8IZF5); β-arrestin recruitment, TANGO luminescence, measured: GPR113; concentration not given; baseline: basal luminescence).
`[2H]c1c([2H])c([C@]2([2H])CCCN2C(=O)C(C)(C)Oc2ccc3cn[nH]c3c2)c([2H])c([2H])c1C([2H])([2H])[2H]` gave a remaining binding of 72% (MAP3K1 (Homo sapiens, UniProt Q13233); KINOMEscan; 1 µM; baseline: DMSO control).
The inhibition of `Cn1cccc1-c1cccnc1` is reported as -23.3% (DRD4 (Homo sapiens, UniProt P21917); binding; 50 µM).
For `O=C(Nc1cnccc1Cl)N1CCN(Cc2ccc3c(c2)OC(F)(F)O3)CC1`, the inhibition was 13% (GABAB1B receptor, human; binding; 10 µM, together with: [3H]CGP-54626).
The inhibition of `COc1cc2c(NC3CCN(C)CC3)cc(-c3ccc(C)o3)nc2cc1OCCCN1CCCC1` is reported as -11.5% (DNMT1 (Homo sapiens, UniProt P26358); enzyme activity; 137.17 nM).
For `O=C(Nc1cccnn1)N1CCC(=Cc2cccc(Oc3ccc(C(F)(F)F)cn3)c2)CC1`, the inhibition was 1.7% (Monoacylglycerol lipase ABHD6 (Abhd6, Rattus norvegicus, UniProt Q5XI64); probe labelling, inhibitor, competitive ABPP with azido-FP probe, measured: ABHD6; rat brain membrane fraction; 0.01 µM).
For `COc1ccc(N2C(=O)N(c3c(C)cccc3Cl)Cc3cnc(Nc4ccc(C5CCN(C)CC5)cc4OC)nc32)nc1`, the inhibition was 1.48% (NEK9 (Homo sapiens, UniProt Q8TD19); kinase activity; 0.5 µM).
`FC(F)(F)c1cccc(Nc2nc(NCCOc3ccccc3)nc3[nH]cnc23)c1` has an inhibition of 19% (CSNK1E (Homo sapiens, UniProt P49674); Z'-LYTE or Adapta; 5 µM).

Some of these lines once more:
The inhibition of `Cn1cccc1-c1cccnc1` is reported as -23.3% (DRD4 (Homo sapiens, UniProt P21917); binding; 50 µM).
